Measured values gathered from unrelated publications.
Parts stem from different laboratories: compare values within a part only.

Sample 1
Target: 5-hydroxytryptamine receptor 1D (HTR1D, Homo sapiens, UniProt P28221)
Sequence of UniProt P28221 (whole entry, looked up): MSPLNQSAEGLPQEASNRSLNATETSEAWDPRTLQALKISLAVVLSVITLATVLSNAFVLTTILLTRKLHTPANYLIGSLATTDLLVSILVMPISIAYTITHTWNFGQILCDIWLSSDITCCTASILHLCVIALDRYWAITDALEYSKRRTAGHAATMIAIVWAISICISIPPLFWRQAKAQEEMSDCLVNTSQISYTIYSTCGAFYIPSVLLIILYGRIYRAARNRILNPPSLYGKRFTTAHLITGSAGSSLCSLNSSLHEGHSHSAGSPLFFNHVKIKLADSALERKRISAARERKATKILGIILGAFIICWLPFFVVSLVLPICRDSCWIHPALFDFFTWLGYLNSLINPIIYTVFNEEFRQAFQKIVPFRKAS
Read-out: cell-free assay
Tested at: 10 µM
| Compound | inhibition [%] |
| --- | --- |
| COc1cc(N[C@@H]2CCCC[C@]2(O)C(F)(F)F)ccc1F | 2.77 |
| CS(=O)(=O)N1CCCC(NC(=O)[C@H](CCC2CCCCC2)NC(=O)c2ccc(CNC(=O)c3cnc4ccccn34)cc2)C1 (stereo partly drawn) | 18.9 |
| CCC(=NO)C(C)=Cc1ccc(F)c(C)c1 | 4.54 |
| Cc1ccccc1Oc1cc(-n2c(=O)cc(C(F)(F)F)[nH]c2=O)c2ccccc2c1Cl | 0.75 |
| CCOc1ccc(S(=O)(=O)Nc2ccc(Cl)cc2C#Cc2cnc(C(=O)O)cc2OC)c2ncccc12 | -12.6 |
| CC(=O)Nc1ncc(CN2CCC[C@H](Cc3cc(C)nc(C)c3)C2)s1 | 11.6 |
| c1ccc(C2CCN(c3cnc4c(N5CCOCC5)nccn34)CC2)cc1 | 1.09 |
| Cc1noc([C@H]2C[C@@H](c3ccc(C(F)(F)F)cc3)CN(C(=O)N3CCS(=O)(=O)C3)C2)n1 | -9.27 |
| CN1C(=O)[C@@H](N2CCc3cn(Cc4ccccc4)nc3C2=O)COc2ccccc21 | -13.7 |
| C[C@H](c1ccc(F)cc1)N(Cc1ccc(Cl)c(C(=O)O)c1)C(=O)c1cnc2ccccc2c1 | -23.1 |
| O=C(Nc1cccnn1)N1CC(CC=Cc2cncc(Oc3ccc(C(F)(F)F)cn3)n2)C1 | -2.98 |
| CC[C@H](CC(=O)O)n1c(=O)c2ncccc2n(Cc2cn(C)c3cc(C)cc(C)c23)c1=O | 52.9 |
| C[C@H](c1ccnc(Nc2nc3ccc(-c4cc(N(C)C)ncn4)cc3[nH]2)c1)N1CCN(C(=O)CC(F)(F)F)CC1 | 23.2 |
| CN(C)C(=O)c1sc2nc(N3CCC(S(C)(=O)=O)CC3)cc(C(F)(F)F)c2c1N | 6.7 |
| CC1=C(C#N)C(c2ccc3[nH]nc(C)c3c2)C(C#N)=C(C)N1 | -14.9 |

Sample 2
Target: Histone acetyltransferase KAT6A, winged helix 1, GST fusion (KAT6A, Homo sapiens, UniProt Q92794, residues 1-85)
Method: protein binding microarray
Form: double-stranded DNA, one strand shown
Sample: in vitro
Tested at: not given
Notes: 8-mer, flanks averaged, mean of 2 arrays, mostly near background
Baseline: not given
Reading: higher = stronger binding
Construct (chain): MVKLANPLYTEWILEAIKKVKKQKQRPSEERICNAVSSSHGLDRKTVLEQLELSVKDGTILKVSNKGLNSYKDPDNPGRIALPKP
| Oligonucleotide | E-score |
| --- | --- |
| GAGTGCAC | -0.184 |
| ATGTGCGA | 0.11 |
| ATTTTTGC | -0.187 |
| ATGCGATG | 0.0331 |
| TGTGGAAA | -0.217 |
| CGCCTTGC | 0.046 |
| GAGCTCAA | 0.0388 |
| ACCGTGCA | -0.0408 |

Sample 3
Target: MAP kinase-activated protein kinase 5 (MAPKAPK5, Homo sapiens, UniProt Q8IW41)
Read-out: enzyme activity
Mode: inhibitor
Tested at: 0.5 µM
Baseline: control
Construct (Q8IW41 1-473): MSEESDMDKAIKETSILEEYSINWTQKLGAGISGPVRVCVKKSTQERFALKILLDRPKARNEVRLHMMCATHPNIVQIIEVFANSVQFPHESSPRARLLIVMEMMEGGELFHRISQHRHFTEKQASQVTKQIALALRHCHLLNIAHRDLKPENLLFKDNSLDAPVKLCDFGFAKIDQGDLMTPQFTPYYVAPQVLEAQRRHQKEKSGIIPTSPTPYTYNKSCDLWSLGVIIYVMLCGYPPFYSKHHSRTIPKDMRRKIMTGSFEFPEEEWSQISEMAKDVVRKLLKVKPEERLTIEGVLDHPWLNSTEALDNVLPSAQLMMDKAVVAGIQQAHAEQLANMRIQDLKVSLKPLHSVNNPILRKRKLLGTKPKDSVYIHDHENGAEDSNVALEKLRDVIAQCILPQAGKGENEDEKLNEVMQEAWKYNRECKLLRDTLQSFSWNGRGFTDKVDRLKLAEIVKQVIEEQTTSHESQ
| SMILES | remaining activity [%] |
| --- | --- |
| O=C(Nc1cccc(Nc2cc(Nc3cccc(C(F)(F)F)c3)ncn2)c1)C1CC1 | 101 |
| COc1cc2nccc(Oc3ccc(NC(=S)NC(=O)c4ccccc4C)cc3)c2cc1OC | 99 |
| O=C(O)c1ccc2c3c1cccc3c(=O)n1c3ccccc3nc21 | 96 |
| OCC(O)CCON=C1C(c2c(O)[nH]c3ccccc23)=Nc2ccccc21 (stereo not drawn) | 86.8 |
| CN(C)c1ccc(C=C2C(=O)Nc3ccccc32)cc1 | 98.6 |
| COc1ccc(C(=O)Nc2sc3c(c2C(N)=O)CCCC3)cc1OC | 86.4 |
| C#Cc1cccc(Nc2ncnc3cc(OCCOC)c(OCCOC)cc23)c1 | 89.7 |
| O=C(CCCc1ccc(-c2ccccc2F)cc1)Nc1ccc(O)cc1 | 91.4 |
| Cn1c2ccccc2c2c3c(c4c5ccccc5n(CCC#N)c4c21)CNC3=O | 127 |
| Nc1[nH]nc2nc3ccccc3nc12 | 82.7 |
| Cn1sc(=O)n(Cc2ccccc2)c1=O | 94.2 |
| O=C1NC(=O)C(c2cn(CCCO)c3ncccc23)=C1c1cnccn1 | 98.6 |
| N#CC(C#N)=C(N)/C(C#N)=C/c1ccc(O)cc1 | 94.2 |
| Cc1nc(-c2ccccc2)c(-c2ccncc2)o1 | 99.2 |
| NCCNc1ncc(C(N)=O)c(Nc2cccc(C(F)(F)F)c2)n1 | 84 |

Further values, each from its own experiment
Method: cross-linking MS
| Substance | partner | system | conditions | endpoint | result |
| --- | --- | --- | --- | --- | --- |
| H2BC21 (Homo sapiens, UniProt Q16778) | H2AC25 (Homo sapiens, UniProt Q7L7L0) | – | hits only | interaction screen | cross-linked |
| H2AC11 (Homo sapiens, UniProt P0C0S8) | H1-4 (Homo sapiens, UniProt P10412) | – | hits only | interaction screen | cross-linked |
| SNRPB2 (Homo sapiens, UniProt P08579) | SNRPD3 (Homo sapiens, UniProt P62318) | cell fractions | added: DMTMM | cross-linked residues | K111 to E14 |
| MCM5 (Homo sapiens, UniProt P33992) | MCM2 (Homo sapiens, UniProt P49736) | cell fractions | added: DMTMM | cross-linked residues | K228 to E568 |

A few entries again (sample 3):
| SMILES | remaining activity [%] |
| --- | --- |
| N#CC(C#N)=C(N)/C(C#N)=C/c1ccc(O)cc1 | 94.2 |
| OCC(O)CCON=C1C(c2c(O)[nH]c3ccccc23)=Nc2ccccc21 (stereo not drawn) | 86.8 |
| O=C(CCCc1ccc(-c2ccccc2F)cc1)Nc1ccc(O)cc1 | 91.4 |
| Cn1sc(=O)n(Cc2ccccc2)c1=O | 94.2 |
| CN(C)c1ccc(C=C2C(=O)Nc3ccccc32)cc1 | 98.6 |
| O=C(O)c1ccc2c3c1cccc3c(=O)n1c3ccccc3nc21 | 96 |
| Nc1[nH]nc2nc3ccccc3nc12 | 82.7 |
